Assay results collected from several papers.
Each line is one published result; not all experiments were run side by side.

COc1ccc2nc(-c3ccc(N(C)C)cc3)sc2c1
fluorescence lifetime (PBS; free dye): 1.26 ns

COc1ccc2c(c1)O[B-]1(c3ccccc3)OC(=O)C(c3ccccc3)=N[N+]1=C2C (stereo not shown)
fluorescence lifetime (toluene): 1.05 ns

O=c1cc(/C=C/c2ccc(N3CCOCC3)cc2)oc(/C=C/c2ccc(N3CCOCC3)cc2)c1
fluorescence lifetime (acetonitrile; 298 K, together with: excitation 377 nm): 0.4 ns

CCC1=[N+]2N=C(/C=C/C=C/c3ccccc3)C(=O)O[B-]2(c2ccccc2)Oc2cc(N(CC)CC)ccc21 (stereo not shown)
fluorescence lifetime (toluene): 1.18 ns

O=c1cc(/C=C/c2ccc(N3CCCC3)cc2)oc(/C=C/c2ccc(N3CCCC3)cc2)c1
fluorescence lifetime (acetonitrile; 298 K, together with: excitation 377 nm): 0.31 ns

CCCCN1C(=O)c2cccc3c(NCCN4CCOCC4)ccc(c23)C1=O
fluorescence lifetime (methanol): 9.7 ns

CCN(CC)c1ccc2c(c1)O[B-]1(c3ccccc3C)OC(=O)C(c3ccccc3)=N[N+]1=C2 (stereo not shown)
fluorescence lifetime (toluene): 2.32 ns

O=c1cc(/C=C/c2ccc(N(c3ccccc3)c3ccccc3)cc2)oc(/C=C/c2ccc(N(c3ccccc3)c3ccccc3)cc2)c1
fluorescence lifetime (acetonitrile/water 1:19 v/v; 298 K, aggregate nanoparticle suspension, together with: excitation 377 nm): 2.2 ns

CCCCN1C(=O)c2cccc3c(NCCCCCCN4CCOCC4)ccc(c23)C1=O
fluorescence lifetime (toluene): 8.6 ns

O=c1c(O)c(-c2ccc(N(c3ccccc3)c3ccccc3)cc2)oc2cc3ccccc3cc12
fluorescence lifetime (DMSO, N2-purged): 0.97 ns

CN(C)c1ccc(/C=C/c2cc(=O)cc(/C=C/c3ccc(N(C)C)cc3)o2)cc1
fluorescence lifetime (acetonitrile/water 1:19 v/v; 298 K, aggregate nanoparticle suspension, together with: excitation 377 nm): 1.4 ns

C=Cc1ccccc1[B-]12OC(=O)C(c3ccccc3)=N[N+]1=Cc1ccc(N(CC)CC)cc1O2 (stereo not shown)
fluorescence lifetime (toluene): 2.42 ns

CCCCN1C(=O)c2cccc3c(NCCCN4CCOCC4)ccc(c23)C1=O
fluorescence lifetime (ethylene glycol): 6.4 ns

Excerpt of the above:
COc1ccc2nc(-c3ccc(N(C)C)cc3)sc2c1
fluorescence lifetime (PBS; free dye): 1.26 ns
